Experimental data of several laboratories.
A part holds a random share of what one study measured.

Block 1
Target: Sal-like protein 4, full length isoform A (SALL4, Homo sapiens, UniProt Q9UJQ4, residues 1-1053)
Sequence of UniProt Q9UJQ4 (whole entry, looked up): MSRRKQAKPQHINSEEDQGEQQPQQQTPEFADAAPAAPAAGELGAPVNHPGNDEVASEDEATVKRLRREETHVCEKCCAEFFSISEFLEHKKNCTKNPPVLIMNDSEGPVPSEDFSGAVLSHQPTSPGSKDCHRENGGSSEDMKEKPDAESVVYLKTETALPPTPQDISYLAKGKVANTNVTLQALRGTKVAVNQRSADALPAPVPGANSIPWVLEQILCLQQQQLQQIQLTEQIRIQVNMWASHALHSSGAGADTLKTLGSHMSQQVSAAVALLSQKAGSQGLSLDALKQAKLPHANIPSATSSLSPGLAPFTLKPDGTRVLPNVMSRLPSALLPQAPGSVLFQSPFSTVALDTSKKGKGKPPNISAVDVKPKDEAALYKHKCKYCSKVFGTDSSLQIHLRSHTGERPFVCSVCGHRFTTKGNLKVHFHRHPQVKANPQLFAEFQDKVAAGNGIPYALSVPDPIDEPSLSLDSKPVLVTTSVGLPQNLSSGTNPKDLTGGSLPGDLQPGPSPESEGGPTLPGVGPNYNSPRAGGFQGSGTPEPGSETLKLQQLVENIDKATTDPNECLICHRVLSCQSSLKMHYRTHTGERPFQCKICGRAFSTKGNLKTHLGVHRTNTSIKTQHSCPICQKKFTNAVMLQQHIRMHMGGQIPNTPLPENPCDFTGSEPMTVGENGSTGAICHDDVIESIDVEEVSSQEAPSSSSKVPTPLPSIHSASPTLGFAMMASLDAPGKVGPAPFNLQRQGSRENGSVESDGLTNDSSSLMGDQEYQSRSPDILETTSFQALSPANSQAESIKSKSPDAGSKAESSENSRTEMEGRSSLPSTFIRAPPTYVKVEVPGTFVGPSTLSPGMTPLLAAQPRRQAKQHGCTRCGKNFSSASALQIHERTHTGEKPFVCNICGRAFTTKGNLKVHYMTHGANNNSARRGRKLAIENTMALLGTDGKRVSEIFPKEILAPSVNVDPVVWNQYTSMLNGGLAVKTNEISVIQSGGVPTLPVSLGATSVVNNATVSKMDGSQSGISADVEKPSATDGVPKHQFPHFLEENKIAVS
Technique: universal PBM
Form: double-stranded DNA, one strand shown
Medium: in vitro
Concentration: 600 nM
Setting: 8-mer, flanks averaged, mean of replicates
Direction: higher = stronger binding
For `CCCGCTAC`, the E-score was -0.194.
`CCGACCGG` gave an E-score of -0.387.
For `ACGACAGT`, the E-score was 0.0203.
`GAACACGC` gave an E-score of -0.149.
With `CGAGAACC` the E-score was -0.132.
For `CCGAACGC`, the E-score was -0.156.
With `AGCGTAGG` the E-score was -0.218.
The E-score of `AATCGGCA` is reported as 0.181.
For `AGGACATA`, the E-score was 0.12.
With `TAGAGAAA` the E-score was 0.0162.
With `AACCTCCA` the E-score was -0.1.
With `CTATTTTC` the E-score was 0.23.
The E-score of `ATGGGGGA` is reported as -0.0744.
With `CCAGGAAC` the E-score was -0.303.
`CATCCCAG` has an E-score of -0.137.
For `ACACAGCA`, the E-score was 0.0973.
The E-score of `CTTTTCAA` is reported as 0.254.
For `AAATCTGT`, the E-score was 0.182.
`AGGTACCC` has an E-score of -0.307.
`TTGAGAAA` gave an E-score of 0.279.
The E-score of `CATACTCC` is reported as 0.0829.
`CGAACCCA` has an E-score of -0.233.
For `GTCAATTA`, the E-score was 0.192.
With `CATTGTCG` the E-score was 0.0173.
The E-score of `CGTTAGCC` is reported as -0.0994.

Block 2
Target: RNA binding protein fox-1 homolog 2, RRM domain, GST-SBP tag (RBFOX2, Homo sapiens, UniProt O43251-10, residues 100-194)
Technique: RNA Bind-n-Seq
Form: RNA
Medium: in vitro
Concentration: 365 nM
Setting: natural RNA segment, single round, ends assumed
Baseline: no-protein control
Direction: higher = stronger binding
Target sequence (chain): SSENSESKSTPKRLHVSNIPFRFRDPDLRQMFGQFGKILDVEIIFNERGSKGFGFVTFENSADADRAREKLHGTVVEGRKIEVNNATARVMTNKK
`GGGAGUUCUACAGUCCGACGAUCAGUUUGUGGCUUCAUGGAAACUCCCUGUAAACUAAAAGCUUCAGGGUUAUGUCUAUGUUCAUUCUAUAGAAGAAAUGCAAACUAUCACUGUAUUUUAAUAUUUGUUAUUCUGGAAUUCUCGGGUGCCAA` — result for “RBNS enrichment (R)”: 0.694.
`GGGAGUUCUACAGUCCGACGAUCGCUGCUUUCUUGUCUUUUAUUUCUAAAAGCCCCCUUAUACCCCACUUUGUGCAGCAAAGAUCCCCGUGCAGGUCACAGCCUGAUUUGUGGCCAGGCUGGACAAAUUCCUGUGGAAUUCUCGGGUGCCAA`: “RBNS enrichment (R)” 2.08.
For `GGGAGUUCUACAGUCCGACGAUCGCUUUUAAGAGAGCCAUCAGUUAGCUAUCAGACUCUAGGUUGAUGCAUUUUGUACUUAGCUGUACUGUGUGAUAUUUUUCAUUAUUUUAGGACGCCAACAUGAGACCUGUUGGAAUUCUCGGGUGCCAA`, “RBNS enrichment (R)” read 0.835.
For `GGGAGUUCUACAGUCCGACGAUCCAGUUUCAUUAUUUUGGAUGAUGAUGCAGAGACUCAUGUUAAUGAACUCGAAAAUGGUGUUGCUUCAUGUACUUUGAAAACCAAUCAGGUGUUUCCUGCGCUACUACUUGUGGAAUUCUCGGGUGCCAA`, “RBNS enrichment (R)” read 0.404.
Under “RBNS enrichment (R)”, `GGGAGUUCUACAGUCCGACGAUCGAGGUAACUAAAUAGCCAUUAGAAGAAGAAGUGAAGCCUUUCAUGCAGGAUGAUAGAUCUAACUUAUCAAUGUACUGUCACAGUACAUUAAUCGUUUUAUUUGAGUAGGUUGGAAUUCUCGGGUGCCAA` is recorded as 0.702.
`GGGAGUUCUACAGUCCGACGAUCCUGUACAUUAUCUUUGGUAACACUAGACUAGUGUAGUCUUGGGGAACACACCGAGGAAACAUGUAGCGAGAAUCACAUACAAGGCUUGGUGUUUCAUAAGCAUGCCUGCUUGGAAUUCUCGGGUGCCAA` — result for “RBNS enrichment (R)”: 1.38.
`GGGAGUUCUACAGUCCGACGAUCCGCGCCCAGUCCAGGAUCUGCCUCCUAUCAGGGAUCCCAACUCUGAAUUUCCUGCCACUAACAUACACACAGUACCAGCCUUAAAACAAAAGACUAGGUACUGUAAGCAUUGGAAUUCUCGGGUGCCAA` — result for “RBNS enrichment (R)”: 0.283.
For `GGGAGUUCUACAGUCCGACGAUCUGCCUCCACCUCCCCUAUCCACCAAGAUGUAGAAUUGUGAAUAUAACUGCAAAAAGUUAGUCUUAUGUAUAGACAUUAUUUUCGUCGUAUGUUUCUAUAUUUUGAAACAGUGGAAUUCUCGGGUGCCAA`, “RBNS enrichment (R)” read 0.602.
Under “RBNS enrichment (R)”, `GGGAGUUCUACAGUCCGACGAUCCAGCUCUCCAUGCUGAGCUGUGGCCAAGGGGAACAGGUGGGAUGUUGCUGGCCGCCUUCAGAAUCGGGGGGAGUUUAGUCUGAGACAUCCCUGCUCCCCCUUUUUUCAAGUGGAAUUCUCGGGUGCCAA` is recorded as 0.507.
For `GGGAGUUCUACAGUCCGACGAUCUUCCUUCCCCUCAUUUAUAUCCUUAAUUCCUUGAGCUGCUGAGGUUUAGAACUGGUAGAGCCUACCUAAGGGUCUCCCCAUCUCCAGGAACUCUCAUGUAGGAUUUUUAAUGGAAUUCUCGGGUGCCAA`, “RBNS enrichment (R)” read 0.433.
For `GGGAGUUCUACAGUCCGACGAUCACGCUUAAUUUUAAUUGGGAGAAAGUGAGUGCUUAUUGUAAUGGAGUUAAUUUUAUUGAUAAUAAAUUAUACACCAUGAAACUGCUCUUGGGCUACUGUAGAUUUGUAUCUGGAAUUCUCGGGUGCCAA`, “RBNS enrichment (R)” read 0.436.
For `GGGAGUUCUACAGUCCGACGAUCCUUUUAUAUAUUAAAAAACGUAUCAUGCACCAACUGUGAAUAGCUGCCGCUUGCGCAGAGGACCCGGGGAGGGGUCCCGAGAGGCUCCCCAUGCAACACUGGAAAUGACUUGGAAUUCUCGGGUGCCAA`, “RBNS enrichment (R)” read 2.26.

Block 3
Target: Hepatocyte nuclear factor 3-alpha (Foxa1, Mus musculus, UniProt P35582, residues 1-468, full length assumed)
Technique: EMSA with sequencing
Form: double-stranded DNA, one strand shown
Medium: in vitro
Concentration: 10 and 20 nM
Setting: whole designed probe, mean of two concentrations, ends assumed
Baseline: negative control set to 0
Direction: higher = stronger binding
Target sequence (chain): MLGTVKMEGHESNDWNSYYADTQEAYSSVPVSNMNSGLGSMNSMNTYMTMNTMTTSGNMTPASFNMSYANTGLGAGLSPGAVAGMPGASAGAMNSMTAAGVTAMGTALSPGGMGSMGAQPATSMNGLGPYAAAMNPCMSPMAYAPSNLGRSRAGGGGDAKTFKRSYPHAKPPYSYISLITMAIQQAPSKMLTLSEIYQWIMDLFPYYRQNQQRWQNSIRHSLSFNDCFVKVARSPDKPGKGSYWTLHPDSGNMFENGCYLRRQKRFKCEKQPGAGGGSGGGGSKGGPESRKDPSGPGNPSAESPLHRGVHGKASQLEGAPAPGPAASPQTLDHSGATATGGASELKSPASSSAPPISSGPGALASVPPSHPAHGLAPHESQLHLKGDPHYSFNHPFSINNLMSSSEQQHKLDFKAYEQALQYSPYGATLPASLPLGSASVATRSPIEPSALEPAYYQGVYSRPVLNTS
Under “normalised bound fraction”, `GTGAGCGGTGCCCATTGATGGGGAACCTCCAGGGTAGTTGTCCTTCCTGTGGCTGCTCACTGATCCAGGCTACTTTGATCTTGTGACTCAAAGTTCAACAAAATGTGGATGCGTCATTTAAATTACACTTCAATGGCCAGAACTTACGAAATGGCCTCATCCAGTTGCAAGAAGTTTGGGAAATGTAGCCTTCCATATTTACAGGAATAAATGAAAAACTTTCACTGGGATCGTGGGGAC` is recorded as 0.0319 ratio.
For `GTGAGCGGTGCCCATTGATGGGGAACGGCTAAAATGACTATCAATGGCCCTGGGCTGGCCCACACCTAAAGACTGTAAAACAGGAGAGCAAACAATTGACTTCTCCCTGACTTGCTAAGTCAACAAACCACATGAGTCAGCAAACCTCTTTTTACTGCCTGACCTTCCTTAACATCTCCTTATCGTATTCTGAAATTCCTATTCTGCTGGCTGGAATCTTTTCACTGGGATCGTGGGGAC`, “normalised bound fraction” read 0.473 ratio.
`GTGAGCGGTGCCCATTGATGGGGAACCTAGCTCCAGTCTTAGCATGGCAATTTCTTCCCGCAACATACTATTTTCATGCAAGAAGTCTCTTTCTTTCTTACAACTAAGAGAAAGCTAAGTAAACAAAGAGAACTTTTAGTTAGCACTCAATAGATTGACATAACATGATTTCTTTTGAAATTCAAAAATAACATGTATTTGTATAATGAAAGAATCCCCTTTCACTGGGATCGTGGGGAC` — result for “normalised bound fraction”: 0.498 ratio.
Under “normalised bound fraction”, `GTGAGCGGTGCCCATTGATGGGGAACACGGTGTTTGCAGAGTGACTGTTCCCCTGGGGGACCCTAGGCTTGTCCTGGCCTTACCTTTGTCCCATCAGTTGCTGCTCTGGCTGGGGAAGTTGTTTACATTGGCTGCTGTGTGCTGCTGCTAGGAATTTTGAGGAGTGTGCACTTTTTTTTTTTTTTTTTTGCTGTTGTTGAGGCGGAGTCTCGCTCTGTCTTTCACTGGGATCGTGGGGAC` is recorded as 0.433 ratio.
`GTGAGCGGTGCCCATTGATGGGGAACGTACAACTTCTCTCCAAGACCTTACTTATATATCTAAATTTCATACTTCATAACATATAAAATAAATCCTCTTCTCAGCTTCTTTGTACCAACATGTTTACATTGTACATTTTTACTCTCTTTAGAATTTTATTTTTTTTAAATACAAAAGAAAAAATAGGGCAGATATTGAAAAGCATATGTATAAATTCTTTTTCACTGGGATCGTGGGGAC` — result for “normalised bound fraction”: 0.355 ratio.
For `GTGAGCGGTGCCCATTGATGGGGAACGAAGGAAATAATGGAGCCAACCATGCATATAACCTCAGGGAGAACATTCTAGGTAGAGGGAACAGCAAGTGCAAAGGCCCTGAAGTGGGGGTTTGTTTACCTTGTTGCACAATCTGCACACAGGCCAGTACAATTGGAATGGATGGGAAATGTAAAAGAGAGAAGTTGAAAAGGCCAGGTGCAGTGGCTCATGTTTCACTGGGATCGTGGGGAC`, “normalised bound fraction” read 0.43 ratio.
`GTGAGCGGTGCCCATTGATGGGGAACGCCGTTGGTTCATGCTGTGGCTACTGCCAATTCTTTAAGTGTTCCCTCACCTCAAATCTTTGATGCACGAGGTCCAGCAGTCGTCACTACTAAGTCAACACTGAGACATGTAAATGTTTGTGAAATGAGTAATAACCAGGATGGTACAATTAAGCTCCCCATGAGCTCCTCCCCACTGCCACCTCAGGCCTCATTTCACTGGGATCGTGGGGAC` — result for “normalised bound fraction”: 0.314 ratio.
Under “normalised bound fraction”, `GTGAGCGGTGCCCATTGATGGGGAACATCTTCCCCCTCTTCCTTGCCCCACCAGCTCACCTTCCCGGGTATCTGCAAATAAGTATTTATTTTCAAGCCGGCATTCGTTAACCCTCTTCTGGCGCAAACTGCTGTTTGCTCTGGATGAATCATGGTCCTTTGGCGACGCCAGGCTCCGGGAGAGCAAAGCACCGTGTCAGGGCCATGATCCGGGGTGGCCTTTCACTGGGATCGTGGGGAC` is recorded as 0.21 ratio.

Block 4
Target: Histone acetyltransferase KAT6A, both winged helices, GST fusion (KAT6A, Homo sapiens, UniProt Q92794, residues 1-181)
Technique: protein binding microarray
Form: double-stranded DNA, one strand shown
Medium: in vitro
Concentration: not given
Setting: 8-mer, flanks averaged, mean of 2 arrays, mostly near background
Baseline: not given
Direction: higher = stronger binding
Construct (chain): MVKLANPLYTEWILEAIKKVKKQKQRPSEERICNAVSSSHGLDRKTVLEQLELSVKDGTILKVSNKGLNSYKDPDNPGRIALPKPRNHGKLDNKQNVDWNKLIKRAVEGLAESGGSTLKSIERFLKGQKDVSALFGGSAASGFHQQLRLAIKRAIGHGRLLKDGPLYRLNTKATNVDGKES
The E-score of `ACGCGCAG` is reported as 0.236.
`TAACCGCA` gave an E-score of 0.205.
With `AGTCTGAA` the E-score was -0.0632.
`ATTGGGCC` has an E-score of -0.00371.
`GATACTAA` gave an E-score of 0.0533.
`ACTTCACG` gave an E-score of 0.0773.
`CGCATGCC` gave an E-score of 0.217.
`CCAATTGC` has an E-score of 0.0382.
For `CAGAGGGC`, the E-score was -0.0549.
The E-score of `AAGCCCAT` is reported as -0.199.
With `GCATTCGC` the E-score was 0.134.
`ACATTACT` gave an E-score of -0.0624.
`GTTCGGTA` has an E-score of 0.0827.
With `CGCGCATC` the E-score was 0.365.
`CAGGATGG` has an E-score of -0.0402.
`TCTAGCCA` gave an E-score of -0.0989.
For `ATACATGA`, the E-score was -0.00225.
With `CTCGCCAG` the E-score was -0.0247.
With `TAGAATAA` the E-score was -0.109.

Excerpt of the above (block 4):
`TAACCGCA` gave an E-score of 0.205.
With `AGTCTGAA` the E-score was -0.0632.
`ATTGGGCC` has an E-score of -0.00371.
`GATACTAA` gave an E-score of 0.0533.
`ACTTCACG` gave an E-score of 0.0773.
